Published values pooled from the literature.
± gives the spread as reported. In brackets after ≈: the same amount, converted by molar mass.
Organism: Staphylococcus aureus

COc1ccc2c(ccc3oc([N+](=O)[O-])c(C)c32)c1 — MIC90 (REMA): > 32 µg/mL
CN[C@H](CC(C)C)C(=O)N[C@H]1C(=O)N[C@@H](CC(N)=O)C(=O)N[C@H]2C(=O)N[C@H]3C(=O)N[C@H](C(=O)N[C@H](C(=O)O)c4cc(O)cc(O)c4-c4cc3ccc4O)[C@H](O)c3ccc(c(Cl)c3)Oc3cc2cc(c3O[C@@H]2O[C@H](CO)[C@@H](O)[C@H](O)[C@H]2O[C@H]2C[C@](C)(N)[C@H](O)[C@H](C)O2)Oc2ccc(cc2Cl)[C@H]1O — MIC90: 1 µg/mL (≈ 0.69 µM)
CC[C@H](C)[C@H](NC(=O)[C@H](Cc1ccccc1)NC(=O)[C@@H](NC(=O)[C@H](Cc1c[nH]c2ccccc12)NC(=O)[C@@H]1CCCN1C(=O)[C@@H](NC(=O)[C@H](C)N)[C@@H](C)CC)[C@@H](C)CC)C(=O)N[C@@H](Cc1ccccc1)C(=O)N[C@@H](CCCNC(=N)N)C(=O)N[C@@H](CC(C)C)C(=O)N[C@@H](CC(C)C)C(=O)N[C@@H](CCCNC(=N)N)C(=O)N[C@@H](CCCCN)C(=O)NCC(N)=O — MBC (ATCC 35556; 18 h, 37 °C): 3.75 µM (≈ 6.48 µg/mL)
OB(O)CSc1nc2ccccc2n1Cc1ccc(C(F)(F)F)cc1C(F)(F)F — FIC index (checkerboard; NRS21; with: cefoxitin): 0.25
Cc1c2c(nn1C)CSCc1cc(n(C)n1)CSc1cc(c3ccccc3c1)OCCCc1c(C(=O)O)n(C)c3c-2c(Cl)ccc13 — log2 fold change (label-free quantitative proteomics, measured: SAOUHSC_01399 protein; SA113; concentration not given; baseline: untreated control): 3.25
CC[C@H](C)[C@H](NC(=O)[C@H](Cc1c[nH]c2ccccc12)NC(=O)[C@@H](NC(=O)[C@H](Cc1c[nH]c2ccccc12)NC(=O)[C@@H]1CCCN1C(=O)[C@@H](NC(=O)[C@H](C)N)[C@@H](C)CC)[C@@H](C)CC)C(=O)N[C@@H](Cc1c[nH]c2ccccc12)C(=O)N[C@@H](CCCNC(=N)N)C(=O)N[C@@H](CC(C)C)C(=O)N[C@@H](CC(C)C)C(=O)N[C@@H](CCCNC(=N)N)C(=O)N[C@@H](CCCCN)C(=O)NCC(N)=O — MBC (ATCC 19609; 18 h, 37 °C): 3.75 µM (≈ 6.78 µg/mL)
CN[C@H](CC(C)C)C(=O)N[C@H]1C(=O)N[C@@H](CC(N)=O)C(=O)N[C@H]2C(=O)N[C@H]3C(=O)N[C@H](C(=O)N[C@H](C(=O)O)c4cc(O)cc(O)c4-c4cc3ccc4O)[C@H](O)c3ccc(c(Cl)c3)Oc3cc2cc(c3O[C@@H]2O[C@H](CO)[C@@H](O)[C@H](O)[C@H]2O[C@H]2C[C@](C)(N)[C@H](O)[C@H](C)O2)Oc2ccc(cc2Cl)[C@H]1O — ROS level (DCFH-DA fluorescence; MRSA ATCC 33591; 1 × MIC; higher = more ROS): 756 a.u.
CCCCCC(=O)N[C@@H](CCCNC(=N)N)C(=O)N[C@@H](CCCNC(=N)N)C(=O)N[C@@H](CCCNC(=N)N)C(=O)N[C@@H](CCCNC(=N)N)C(=O)N[C@H](C(=O)N[C@@H](CC(C)C)C(=O)N[C@H](C(=O)N[C@@H](CCCCN)C(=O)N[C@@H](CCCCN)C(=O)N[C@H](C(=O)N[C@@H](CC(C)C)C(=O)N[C@@H](CCCCN)C(=O)N[C@@H](CC(C)C)C(=O)N[C@@H](CCCCN)C(=O)N[C@@H](CO)C(=O)N[C@@H](CO)C(=O)N[C@@H](C)C(=O)N[C@@H](Cc1ccc(O)cc1)C(N)=O)C(C)C)[C@@H](C)CC)[C@@H](C)CC — FICI (checkerboard; unit not given, with: oritavancin; lower means synergy): 0.06
CN[C@H](CC(C)C)C(=O)N[C@H]1C(=O)N[C@@H](CC(N)=O)C(=O)N[C@H]2C(=O)N[C@H]3C(=O)N[C@H](C(=O)N[C@H](C(=O)O)c4cc(O)cc(O)c4-c4cc3ccc4O)[C@H](O)c3ccc(c(Cl)c3)Oc3cc2cc(c3O[C@@H]2O[C@H](CO)[C@@H](O)[C@H](O)[C@H]2O[C@H]2C[C@](C)(N)[C@H](O)[C@H](C)O2)Oc2ccc(cc2Cl)[C@H]1O — time to kill below detection (ATCC 700699, MRSA; 4 × MIC): ≤ 10 h
CC(=O)NC[C@H]1CN(c2ccc(N3CCOCC3)c(F)c2)C(=O)O1 — MIC90: 2 µg/mL (≈ 5.93 µM)
CC(C)[C@@H]1NC(=O)CNC(=O)[C@H](CC(N)=O)NC(=O)[C@H](CCCNC(=N)N)NC(=O)[C@H](Cc2ccc(O)cc2)NC(=O)[C@H](C(C)C)NC(=O)[C@@H](NC(=O)[C@@H](NC(=O)[C@H](CC(N)=O)NC(=O)[C@H](Cc2c[nH]c3ccccc23)NC(=O)[C@H](C)NC(=O)[C@H](Cc2ccccc2)NC(=O)CN)C(C)C)CSSC[C@@H](C(=O)N[C@@H](Cc2c[nH]cn2)C(=O)N[C@@H](CCCNC(=N)N)C(=O)N[C@@H](CCCNC(=N)N)C(=O)N[C@@H](C)C(=O)N[C@@H](CC(N)=O)C(N)=O)NC(=O)[C@H](C(C)C)NC(=O)[C@H](CCCNC(=N)N)NC1=O — EC50 (bactericidal activity; CGMCC 1.9; 24 h): 9.59 µM
CO[C@@]1(NC(=O)Cc2cccs2)C(=O)N2C(C(=O)O)=C(COC(N)=O)CS[C@@H]21 — inhibition zone diameter (ATCC 25923; 128 µg per disk): 26 mm
CCCCCCCCCCCc1c([N+](=O)[O-])oc2ccc3ccccc3c12 — MIC90 (REMA): > 32 µg/mL
Cl.O[C@]12C=C(c3nccc4c3[nH]c3ccccc34)[C@@H]3CCN(CCCC/C=C\CC1)C[C@@]31C[C@@H]3/C=C\CCCCN3[C@H]12 — IC50 (growth; ATCC 43300, MRSA): 0.19 ± 0.001 µg/mL
COC(=O)c1ccc2c(ccc3oc([N+](=O)[O-])cc32)c1 — MIC90 (REMA): > 32 µg/mL
CC(N)C(O)CCCCCCCCCCCCCCC(=O)CCCCCCCC(O)C(C)N (stereo not shown) — growth inhibition (resazurin; ATCC 12600; 50 µM): 99 ± 0.4%
CC[C@H](C)[C@H](NC(=O)CN)C(=O)N[C@@H](CC(C)C)C(=O)N[C@@H](C)C(=O)N[C@@H](C)C(=O)N[C@H](C(=O)N[C@@H](CCCCN)C(=O)N[C@@H](C)C(=O)N[C@H](C(=O)N[C@@H](C)C(=O)N[C@@H](CCCCN)C(=O)N[C@@H](C)C(=O)N[C@@H](C)C(=O)NCC(N)=O)[C@@H](C)CC)[C@@H](C)CC — MIC (ATCC 29213, Mueller-Hinton broth; 12 h, 37 °C): 8 µg/mL (≈ 6.32 µM)
COc1ccc(CC2NCCc3cc(OC)c(OC)cc32)cc1OC.Cl (stereo not shown) — MIC50 (24 h, 37 °C): 1540 µM
CC[C@H](C)[C@H](NC(=O)[C@H](C)NC(=O)[C@H](CCCCN)NC(=O)[C@H](CC(C)C)NC(=O)[C@H](C)NC(=O)[C@@H](NC(=O)[C@H](Cc1c[nH]cn1)NC(=O)[C@H](CC(C)C)NC(=O)[C@@H](NC(=O)[C@@H](NC(=O)[C@H](CCCCN)NC(=O)[C@H](C)NC(=O)[C@H](C)NC(=O)[C@H](CO)NC(=O)[C@H](CCCCN)NC(=O)[C@H](Cc1ccccc1)NC(=O)[C@@H](NC(=O)[C@H](CCCCN)NC(=O)[C@H](CC(C)C)NC(=O)[C@H](Cc1ccccc1)NC(=O)[C@H](CO)NC(=O)[C@H](CCCCN)NC(=O)[C@H](Cc1c[nH]c2ccccc12)NC(=O)[C@H](CCCCN)NC(C)=O)[C@@H](C)O)[C@@H](C)O)C(C)C)[C@@H](C)O)C(=O)N[C@@H](CO)C(=O)N[C@@H](CO)C(N)=O — MBC50 (MRSA; 130 strains): 8 µg/mL (≈ 2.73 µM)

Repeated from above:
CCCCCC(=O)N[C@@H](CCCNC(=N)N)C(=O)N[C@@H](CCCNC(=N)N)C(=O)N[C@@H](CCCNC(=N)N)C(=O)N[C@@H](CCCNC(=N)N)C(=O)N[C@H](C(=O)N[C@@H](CC(C)C)C(=O)N[C@H](C(=O)N[C@@H](CCCCN)C(=O)N[C@@H](CCCCN)C(=O)N[C@H](C(=O)N[C@@H](CC(C)C)C(=O)N[C@@H](CCCCN)C(=O)N[C@@H](CC(C)C)C(=O)N[C@@H](CCCCN)C(=O)N[C@@H](CO)C(=O)N[C@@H](CO)C(=O)N[C@@H](C)C(=O)N[C@@H](Cc1ccc(O)cc1)C(N)=O)C(C)C)[C@@H](C)CC)[C@@H](C)CC — FICI (checkerboard; unit not given, with: oritavancin; lower means synergy): 0.06
